# Measured values gathered from unrelated publications.
# Every numbered part comes from another study and shows a few of its results, in no order. Positions count from the first letter of the parent shown.

# Block 1 — method: RNA Bind-n-Seq; form: RNA; matrix: in vitro; concentration: 365 nM; relative to: no-protein control; direction: higher = stronger binding
# Target: RNA binding protein fox-1 homolog 2, RRM domain, GST-SBP tag (RBFOX2, Homo sapiens, UniProt O43251-10, residues 100-194)
# Setting: natural RNA segment, single round, ends assumed
# Shared flanks, not repeated: GGGAGUUCUACAGUCCGACGAUC … UGGAAUUCUCGGGUGCCAA
# Residues (chain): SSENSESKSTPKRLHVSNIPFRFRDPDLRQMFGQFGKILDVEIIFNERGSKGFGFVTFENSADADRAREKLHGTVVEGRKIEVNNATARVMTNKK
Strand,RBNS enrichment (R)
UUUUCUCCAGAGAGUCCUUGGGGUGAGCCUUGGGGCACAGGUACACUCAGAGGUCUGAGAGCCUACCAUGUGGAACAGUGUAAGCAGAAAGGCCAUCUUCCCACUGUCCU,0.403
UGUUCCAGCCUUCAUCCUUCCUGGCUGUUGCUUUUCCUCUUAAGGGCCUCAGAACUCUUGCUCUUCCUGGGCUGAGGGGGAAUGAGUGUUCUUGCCAUUUGCCAGCCUAA,0.543
UGCAGCUUUUCCAUAUCAGCUCAACCACGCCGCCAGUCCAUUCUUAAGGAACUGCCGACUAGGACUGAUGAUGCAUUUUAGCUUUGAGCUUUUGGGGGUUAUUCUACCAA,0.338
CUAGCCUCGCUCUUGGCAGGUACUCAGCGAAUGAAUGCUGUAUAUGUUGGGUGCAAAGUUCCCUACUUCCUGUGACUUCAGCUCUGUUUUACAAUAAAAUCUUGAAAAUG,1.66
AAAAGCCAUGGCCCAGAGAAUUGGGCCAGUAGAACCUAAGCCACACCUGAGGCCAGCUCUGGUCAGUCUCUGAUGGUCCAUUGGGCUGGCUCAGCACAUUGACAUCACUA,0.213
UUCACGGGAAGGGUUGGUGUGCUGGCUUUAGACGGGGAGAAACAUCUGGAAGGAUGCUCGAGAGAACAAAUGGAGGUGGUGAAAAUCAAGCUUUGGAUUGUGCAUUCCUA,0.567
GAGAAACUAAUCAAAGACUAAUCUCUGUUGGAGGUUGGGAAUAAUGUUUUGCCACUUCUGCAGACUGAGAGACGUGUCAUUGGACAUGUGUAACCAUUUGAUAUCUGAGC,0.234
GUCACGGUACAGUGUUAAUUCACGCCUGUGUGUGUAACAGGACACUCAGCAAUUAUCUUAAGAACACACAGCAGCAUUGACGUGUAGAAAGAGAAUAGUAAAUGCCUUUG,0.474
CUUCUAUAUGGCAGUUCAUUCUUGGCCCUCAGGAUUGGGGAGACCAGCUCUCAUUGUGUGUGCUCAGGGCUAAGUCUAAACAAGGGUUUGCUGGCCCCCAAGCUGUUGUU,1.8
UUGCUUUUCAAUUUUGGAAAGGGAUCUCUGUCCAGGUCAGCCCCUCUUGAAGGGCUACCUUUUGUUUUAAUUGGUGGUGUACUUUUUUGUAUGUGGAAUUUGUCCCAUGU,0.376
GAGAAAGGAGACAGUAAGGUAUUUUGCCUGCCUUGUGAUGCCCUCCCCUGACCACCCUACCUUUUUGCAUCAAACACUGGGAAUGCUUCCUCAGUCCCUGCUCCAAACUA,2.93
CAAUUAAGUUUGAAUGAAUGCCCCUUUUAUGUAGAGUGCUGGUCCCCAGUCAUUGCUGUCUGCAAGUGAUGCGCAUUUAAGUGUUUAAUCUCCUGGGAGCAGGGCACAGG,1.46

# Block 2 — target: CCNB3, cyclin fold, Cln2 fusion (human); method: yeast growth competition, sequencing; matrix: yeast; setting: weak parent motif; relative to: not given; direction: higher = stronger binding
# Starting sequence: PKMYT1 docking peptide (human); SFEPRNLLSLFED; partner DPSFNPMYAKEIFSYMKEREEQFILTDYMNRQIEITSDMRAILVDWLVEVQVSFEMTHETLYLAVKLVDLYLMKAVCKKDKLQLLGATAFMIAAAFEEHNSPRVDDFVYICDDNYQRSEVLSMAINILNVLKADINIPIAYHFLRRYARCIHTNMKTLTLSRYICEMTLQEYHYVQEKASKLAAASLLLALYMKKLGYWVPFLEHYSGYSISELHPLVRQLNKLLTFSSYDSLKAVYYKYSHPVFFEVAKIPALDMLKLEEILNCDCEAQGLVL
Change,normalised enrichment score
E3K,0.648
L7T,0.297
F2I,0.217
S9D,0.286
E3T,0.475
S1G,0.347
S1T,0.165
P4L,0.421
S1P,0.414
E12Y,0.607
S9V,0.556
R5G,0.269
F2L,0.744
F11I,0.307
N6C,0.724
S9N,0.23
E3W,0.34
L7D,0.12
F11Q,0.482
N6W,0.584
L10Y,0.41
D13P,0.431
E12F,0.511
L10A,0.478
L10F,0.431

# Block 3 — method: protein-binding microarray; form: double-stranded DNA, one strand shown; matrix: in vitro; concentration: 2200 nM top; setting: 60-bp whole probe; with: salmon DNA 0.4 mg/ml; relative to: random background probes; direction: higher = stronger binding; shared flanks, not repeated: GCCTAGCAC … GTCTTGATTCGCTTGACGCTGCTG
# Target: Interferon regulatory factor 7, full length, phosphomimetic (IRF7, Homo sapiens, UniProt Q92985, residues 1-503, S471D/S472D/S475D/S476D/S477D/S483D/S484D/S487D)
# Target sequence (chain): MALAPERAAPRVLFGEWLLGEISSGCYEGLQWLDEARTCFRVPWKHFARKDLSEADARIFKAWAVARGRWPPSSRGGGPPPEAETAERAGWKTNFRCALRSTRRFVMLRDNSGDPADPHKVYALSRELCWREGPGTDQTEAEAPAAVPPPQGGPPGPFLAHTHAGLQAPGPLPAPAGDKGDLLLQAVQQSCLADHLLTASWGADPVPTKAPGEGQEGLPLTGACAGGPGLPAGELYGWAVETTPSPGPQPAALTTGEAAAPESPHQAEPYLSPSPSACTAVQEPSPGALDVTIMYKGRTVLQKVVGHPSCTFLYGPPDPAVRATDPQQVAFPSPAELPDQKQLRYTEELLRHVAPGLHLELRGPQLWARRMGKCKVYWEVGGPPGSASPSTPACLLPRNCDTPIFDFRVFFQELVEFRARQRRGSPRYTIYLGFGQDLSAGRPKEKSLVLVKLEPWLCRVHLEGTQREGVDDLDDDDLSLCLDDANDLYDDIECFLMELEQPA
Strand,fitted relative affinity
TTATGTCTCGGTATCGGTTAGTGCTAG,1.4 z-score
GGCGGTTTCCTTTCCCTGACGTGCTAG,3.92 z-score
TTAGGTTTTCTACTGCTTTAGTGCTAG,1.21 z-score
GACGGTCTAGGACTGGGGACGTGCTAG,-0.726 z-score
GACGATCTCCGTCTCGAGACGTGCTAG,0.749 z-score
AAGAGTTTCCCTCCCTGAGTGTGCTAG,1.08 z-score
TCAAAAATCAAGTCTGGGACTGTGCTA,-0.866 z-score
GACGGACTGGGGATTGGGGACGTGCTA,-0.396 z-score
GGCGGTTTCGGGTTTCGGGACGTGCTA,9.21 z-score
TTAGAACTGGGGTATCGGTTAGTGCTA,0.00184 z-score
GACGATATCGAGTTTCGAGACGTGCTA,2.15 z-score
ACAAGTTTCTCCTTTGTAAAGTGCTAG,2.72 z-score
TTAGGACCGGACTTTCGGTTAGTGCTA,4.9 z-score
TCAATTCTCAGCCCTGCGACTGTGCTA,0.476 z-score
GACGCTTTCGGTCTCGGGACGTGCTAG,7.47 z-score
TTAGATTTCAGTCTTGATTAGTGCTAG,0.487 z-score
GACGGTATCGGGTATCGCGACGTGCTA,0.111 z-score
TACGGACTGGGGTTTCGGGACGTGCTA,0.67 z-score
TCACACTTGTGTTTGGGACTGTGCTAG,1.15 z-score
GACGGTTTCGACTTTCGGGGCGTGCTA,8.19 z-score
GACGGTTTCGACACTGGGTACGTGCTA,2.84 z-score
CAATTCCTGAAATCTCTTTCCGTGCTA,1.1 z-score
TTAGGTTTCGACTCTGGGTTAGTGCTA,4.66 z-score
GACGCACTGGGGACTGGAGACGTGCTA,-0.428 z-score
TTACGACTGGGGTATCGGTTAGTGCTA,0.633 z-score

# Block 4 — method: universal PBM; form: double-stranded DNA, one strand shown; matrix: in vitro; concentration: not given; direction: higher = stronger binding
# Target: Sal-like protein 4, full length isoform B (SALL4, Homo sapiens, UniProt Q9UJQ4-2, residues 1-616)
# Setting: 8-mer, flanks averaged, mean of replicates
# Construct (chain): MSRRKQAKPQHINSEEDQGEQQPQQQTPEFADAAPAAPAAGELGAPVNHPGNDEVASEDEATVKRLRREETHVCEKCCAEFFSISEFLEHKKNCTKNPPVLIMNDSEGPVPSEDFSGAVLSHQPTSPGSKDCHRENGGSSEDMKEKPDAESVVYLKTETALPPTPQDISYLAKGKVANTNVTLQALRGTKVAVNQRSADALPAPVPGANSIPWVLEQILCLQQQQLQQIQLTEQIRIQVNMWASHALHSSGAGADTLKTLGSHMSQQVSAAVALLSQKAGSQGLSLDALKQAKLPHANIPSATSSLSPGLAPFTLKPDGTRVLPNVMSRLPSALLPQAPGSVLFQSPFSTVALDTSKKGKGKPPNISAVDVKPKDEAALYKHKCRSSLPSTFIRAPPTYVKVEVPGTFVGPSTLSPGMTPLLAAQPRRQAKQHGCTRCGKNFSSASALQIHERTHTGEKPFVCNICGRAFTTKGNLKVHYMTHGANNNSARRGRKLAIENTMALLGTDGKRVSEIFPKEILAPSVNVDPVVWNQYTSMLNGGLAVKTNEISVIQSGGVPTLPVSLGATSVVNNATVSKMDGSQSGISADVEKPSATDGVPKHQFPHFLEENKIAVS
Strand,E-score
ATCGCATG,-0.0241
AGAATCGG,-0.135
CGGTACCC,-0.124
CTGTACAG,0.192
CCCTCGTC,-0.29
CGCGACCC,-0.272
GCAGTCAC,-0.12
AACCCTTC,0.0983
GTCCCCAC,-0.276
ATCTAAAA,0.111
GACTCTGC,-0.288
AGGGCCTC,-0.246
CTAAGGAC,-0.0684
ACTTCCAG,-0.0331
TAACCTAA,0.185
GAGAGACC,-0.246
CACGTATC,0.037
ACGGATAT,0.194
GCTTTAAA,0.00422

# Some of these lines once more (block 4):
Strand,E-score
GCAGTCAC,-0.12
AACCCTTC,0.0983
GTCCCCAC,-0.276
ATCTAAAA,0.111
GACTCTGC,-0.288
AGGGCCTC,-0.246
CTAAGGAC,-0.0684
ACTTCCAG,-0.0331
TAACCTAA,0.185
GAGAGACC,-0.246
CACGTATC,0.037
